Results from different studies.
Parts stem from different laboratories: compare values within a part only.

Set 1
Target: RNA binding protein fox-1 homolog 2, RRM domain, GST-SBP tag (RBFOX2, Homo sapiens, UniProt O43251-10, residues 100-194)
Technique: RNA Bind-n-Seq
Form: RNA
Matrix: in vitro
Concentration: 365 nM
Setting: natural RNA segment, single round, ends assumed
Baseline: no-protein control
Direction: higher = stronger binding
Quantity: RBNS enrichment (R)
Target sequence (chain): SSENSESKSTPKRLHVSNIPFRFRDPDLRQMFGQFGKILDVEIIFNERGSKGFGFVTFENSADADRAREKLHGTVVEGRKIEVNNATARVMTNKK
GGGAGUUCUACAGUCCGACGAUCAAAAAUAUGUAAUAUUUGGACCAGAUGUUGUGAAUAAUAGUAGAGAUAAAGCUAUUUUAUUCUGUAUUUUUAAAACUGUUCCGUACAAAUAAAAGCUCUCCUGGACACAGUGGAAUUCUCGGGUGCCAA: 0.385
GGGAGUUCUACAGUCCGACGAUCUGUCAGGAGGGAAGAGGGGAGUCUACGCUCACAACCCAGGCACUGGACAGCUGCAGCCUGGCUAGGCCACUGACCCCACAGUCCAUAUAAGCUGACCAUGCAGCUCGCUGUGGAAUUCUCGGGUGCCAA: 0.398
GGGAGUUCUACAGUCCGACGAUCCAACAUAGAUUCCAUGAUCUUUUUAAUGACAGUACAGACUGAGAUUUGAAGGAAACAUGCACAAAUCUGUAAAACAUAGACCUUCGCUUUAUUUUUGUAAGUAUCACCUGUGGAAUUCUCGGGUGCCAA: 0.274
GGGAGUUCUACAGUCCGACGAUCGAUCUGCUUGCCCCAAACAAAUGGUGUAAGCUGAGGGAAACUCCAACCCCACACUUGAUGCUCUGUCCUCUCCACACAGGCCUCUUGCUCCUAACAGCUCAGCCCUGGCCUGGAAUUCUCGGGUGCCAA: 0.256
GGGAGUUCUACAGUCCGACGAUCGGUUUUCUUUUCCCAUCUCUGCACAUUGAAAAACCAAGCCAAGUCUAUUUGCCAAUGAUAGAUCACUAAUUACAAAGCUAGUAGUUCUCCUUUGGGUAAGAGUCUGUUUGUGGAAUUCUCGGGUGCCAA: 0.42
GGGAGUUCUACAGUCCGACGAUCGGUGAAGGUGUGUUGUCCUACAUAGAACGGUCCCUUCAGUUACCAUUCUGAUUGCUCUAUGCUGCUUUCCUCCUCUUAAAGUUUCAUGAGCUCUUGGGUUAAAUGGUUUGUGGAAUUCUCGGGUGCCAA: 0.458
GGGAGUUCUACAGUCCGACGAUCCUGACCCAAGACAAAAUGCACAAGUCAGGAAGCACUUCCUUGUGCCCGAGCUGUGGGCCACCCUGGGGGCGCUGUCGCUGCUGUUUCCCUGCCCGAGAAUCAGCUUGAAUUGGAAUUCUCGGGUGCCAA: 1.02
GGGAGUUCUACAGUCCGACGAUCUAGCUACAUUCUGAGAAAAGAGACUCAACAGGAGCUGUUCGCAGGCAUUUUUAAAGCAUUUCCCAACAGAAGAGCAACUAGCAAUAAAAUCCAGCUUUUGUUUGCCAGCCUGGAAUUCUCGGGUGCCAA: 0.7
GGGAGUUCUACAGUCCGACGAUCUUGUCAGUGGUUAAAAGUAUUUAACACUCUACUGUUAAUGACAGAUGUUCUGUUUUUAUAACCUACCAAAAGGAAACUAGAGGCUUCUUGGUGAAGAGCAUUUUUGUGAAUGGAAUUCUCGGGUGCCAA: 0.403
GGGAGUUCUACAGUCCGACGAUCGGACGCCAAAAUGGCAUAACUGAGAUAAGGUGAAUAAGUGACAAAUAAAGCCAGUUUUUUACAAGGUACUUGAUCAUGUUCUCUUGAUUUUAAAUUAGAUUUUAUUCCCAUGGAAUUCUCGGGUGCCAA: 0.381
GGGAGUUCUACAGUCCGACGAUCACAAUCUGAACUAUGUUUCUGAUGUGUGCACACUUUCCAUUUUAGUGCUAUUUUACAUCUGUUCGUUAAAGUAUUAAGUAAUUUAAUGACCCCAAGAGUACCAGAUUCUGUGGAAUUCUCGGGUGCCAA: 0.445
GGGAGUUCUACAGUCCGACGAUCCUUGCUGUGUUGCAAUAUUUUGCUGCUGGACUUUGACCUACUUGUAUUAUGCAGAAAGUUAAUGCAGAUACCUAUUCAAGAUGAUAACUGUAAAGACACUGCUGUCUCCUUGGAAUUCUCGGGUGCCAA: 0.236

Set 2
Target: Ras GTPase-activating protein-binding protein 1, full length (G3BP1, Homo sapiens, UniProt Q13283)
Chain of UniProt Q13283 (whole entry, looked up): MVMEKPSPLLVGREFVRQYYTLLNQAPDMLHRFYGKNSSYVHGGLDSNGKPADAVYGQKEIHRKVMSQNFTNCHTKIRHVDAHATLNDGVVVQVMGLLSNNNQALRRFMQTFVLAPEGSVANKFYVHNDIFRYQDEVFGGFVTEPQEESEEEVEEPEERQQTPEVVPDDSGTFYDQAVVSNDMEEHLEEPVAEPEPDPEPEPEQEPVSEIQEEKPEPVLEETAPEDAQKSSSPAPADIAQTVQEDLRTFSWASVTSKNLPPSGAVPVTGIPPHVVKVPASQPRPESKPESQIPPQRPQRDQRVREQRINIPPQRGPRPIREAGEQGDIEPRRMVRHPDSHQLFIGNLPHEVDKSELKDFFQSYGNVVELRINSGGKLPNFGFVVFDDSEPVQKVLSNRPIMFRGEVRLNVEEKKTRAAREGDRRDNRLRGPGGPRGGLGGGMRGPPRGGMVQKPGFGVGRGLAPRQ
Technique: RNA Bind-n-Seq
Form: RNA
Matrix: in vitro
Concentration: 200 nM
Setting: whole 134-nt RNA, ends assumed
With: 150 mM LiCl
Baseline: input library
Direction: higher = stronger binding
Quantity: log2 enrichment
Library: 7-deaza-guanosine replaces G
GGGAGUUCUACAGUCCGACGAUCGUCCUGUGCUACACAUCGUAUGUACCGAAUCGGGAAAAAGGGAAAAAGGGUUUUUGGGAAAGUAUUAUGUUACGCCGUUCGGAUCUGCACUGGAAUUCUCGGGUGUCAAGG: -1.2
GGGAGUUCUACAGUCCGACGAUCUGGGAGGUGGAUUUUGUUUAUUUUAUUAGCUCAUUUCCAGGGGUGGGAAUUUUUUUUUAAUAUGUGUCAUGAAUAAAGUUGUUUUUGAAAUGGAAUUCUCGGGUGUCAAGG: -0.768
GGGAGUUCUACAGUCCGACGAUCCCUGUGCUACACAUCGUAUGUACCGAAUCAAAUUUUUAAACCCCCCCAAAUUUUUUUAAAAAAGUAUUAUGUUACGCCGUUCGGAUCUGCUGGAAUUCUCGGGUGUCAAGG: 1.16
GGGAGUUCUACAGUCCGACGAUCUGGCCCUGGUGGCAUGCGGGGAGGAAGAGGUGGCCUCAUGGAUCGUGGUGGUCCCGGUGGAAUGUUCAGAAGUGGCCGUGGUGGAGACAGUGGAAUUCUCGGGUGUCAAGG: -0.0939
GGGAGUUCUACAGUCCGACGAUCUGGGAGGUGGAUUUUGUUUAUUUUUUUAGCUCAUUUCCAGGGGUGGGAAUUUUUUUUUAAGAUGUGUCAUGAAUAAAGUUGUUUUUGAAAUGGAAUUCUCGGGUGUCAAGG: -0.0251
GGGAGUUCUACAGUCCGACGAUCCAAGUCCUGUGCUACACAUCGUAUGUACCGAAUCGGGCCCGGGCCCGGGCCCGGGGAAAGUAUUAUGUUACGCCGUUCGGAUCUGCACUUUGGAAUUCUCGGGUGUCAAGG: -0.568
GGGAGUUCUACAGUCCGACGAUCCUGUGCUACACAUCGUAUGUACCGAAUCGGGAAAAAAAGGGGAAAAAAAGGGAAAAAAAGGGAAAGUAUUAUGUUACGCCGUUCGGAUCUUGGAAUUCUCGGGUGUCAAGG: 0.304
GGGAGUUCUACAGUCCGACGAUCUCCUGUGCUACACAUCGUAUGUACCGAAUCAAACCCCCAAACCCCCCCAAACCCCCAAAAAAGUAUUAUGUUACGCCGUUCGGAUCUGCAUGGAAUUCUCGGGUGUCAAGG: 0.0766
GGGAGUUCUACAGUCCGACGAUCGUCCUGUGCUACACAUCGUAUGUACCGAAUCGGGAGGGUUUUUUUGGGUUUUUUUGGGAAAGUAUUAUGUUACGCCGUUCGGAUCUGCACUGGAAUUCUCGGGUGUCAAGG: -0.00272
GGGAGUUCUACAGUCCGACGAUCUGCCUUGCAGAUACGUGGCUUUCCUGAAGCUGUUCCUGGAGACGGCGGAGAAGCACUUCAUGGUGGGCCACCGUGUCCACUACUAUGUCUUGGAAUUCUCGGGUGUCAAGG: 0.0101
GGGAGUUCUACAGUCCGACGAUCUCAAGUCCUGUGCUACACAUCGUAUGUACCGAAUCGGGCCCGGGCCCGGCCCGGGAAAGUAUUAUGUUACGCCGUUCGGAUCUGCACUUCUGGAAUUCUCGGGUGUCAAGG: -1.01

Set 3
Target: Histone acetyltransferase KAT6A, both winged helices, GST fusion (KAT6A, Homo sapiens, UniProt Q92794, residues 1-181)
Technique: protein binding microarray
Form: double-stranded DNA, one strand shown
Matrix: in vitro
Concentration: not given
Setting: 8-mer, flanks averaged, mean of 2 arrays, mostly near background
Baseline: not given
Direction: higher = stronger binding
Quantity: E-score
Construct (chain): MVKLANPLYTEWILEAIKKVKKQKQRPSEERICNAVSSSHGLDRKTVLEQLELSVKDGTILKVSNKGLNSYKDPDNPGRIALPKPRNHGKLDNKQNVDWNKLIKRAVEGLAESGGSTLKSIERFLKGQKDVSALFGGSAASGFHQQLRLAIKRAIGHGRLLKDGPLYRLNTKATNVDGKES
CATGTACG: 0.0106
CCGCACAC: 0.161
AACTGGTC: -0.0472
CAGCTGCG: 0.178
ACAATCTG: -0.0958
ACCAATGG: -0.113
CGGCCCTC: 0.13
CTAATGAA: -0.0904
ATGCCGAG: 0.185
CGATGGCG: 0.214
ACAACTAT: -0.0169
AATTAAAT: 0.0122
TAGCTAGA: -0.0417
AGCGTACC: 0.21
AATTGATA: -0.111
GGGCTCAC: -0.0959
CGACTAAA: -0.05
CCATATCG: 0.148
CGGCCCAC: 0.109
AACCGTTA: 0.0913
CACACAAG: -0.171
CTTTGAGC: 0.00059
AATGAGGA: -0.186
CAAGGTCG: -0.0265
AAACCAAC: -0.0396

Set 4
Target: Sal-like protein 4, full length isoform A (SALL4, Homo sapiens, UniProt Q9UJQ4, residues 1-1053)
Chain of UniProt Q9UJQ4 (whole entry, looked up): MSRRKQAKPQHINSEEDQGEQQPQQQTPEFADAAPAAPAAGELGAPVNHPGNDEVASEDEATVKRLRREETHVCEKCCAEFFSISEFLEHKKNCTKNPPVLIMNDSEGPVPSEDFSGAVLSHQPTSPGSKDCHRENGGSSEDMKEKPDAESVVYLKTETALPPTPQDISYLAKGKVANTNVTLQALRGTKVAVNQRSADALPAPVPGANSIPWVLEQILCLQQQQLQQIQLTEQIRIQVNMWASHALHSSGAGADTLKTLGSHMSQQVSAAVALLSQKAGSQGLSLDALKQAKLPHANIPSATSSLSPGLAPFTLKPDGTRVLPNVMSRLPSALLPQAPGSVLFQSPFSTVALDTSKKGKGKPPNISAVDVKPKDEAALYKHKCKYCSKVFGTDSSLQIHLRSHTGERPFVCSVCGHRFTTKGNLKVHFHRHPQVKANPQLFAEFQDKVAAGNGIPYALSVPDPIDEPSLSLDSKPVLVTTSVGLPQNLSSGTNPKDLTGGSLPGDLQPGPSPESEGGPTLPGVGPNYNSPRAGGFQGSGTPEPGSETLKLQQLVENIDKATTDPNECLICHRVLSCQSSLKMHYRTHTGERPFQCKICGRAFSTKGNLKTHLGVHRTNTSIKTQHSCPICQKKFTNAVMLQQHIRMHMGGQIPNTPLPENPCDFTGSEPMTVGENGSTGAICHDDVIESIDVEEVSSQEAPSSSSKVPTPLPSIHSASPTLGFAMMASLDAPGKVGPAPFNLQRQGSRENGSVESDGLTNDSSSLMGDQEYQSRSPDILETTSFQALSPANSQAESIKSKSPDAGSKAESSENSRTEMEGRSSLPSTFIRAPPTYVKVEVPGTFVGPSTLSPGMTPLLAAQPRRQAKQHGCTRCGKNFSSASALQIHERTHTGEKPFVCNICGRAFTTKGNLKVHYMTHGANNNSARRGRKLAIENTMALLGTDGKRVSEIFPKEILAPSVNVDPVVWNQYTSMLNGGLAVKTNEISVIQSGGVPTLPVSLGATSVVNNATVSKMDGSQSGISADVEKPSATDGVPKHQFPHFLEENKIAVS
Technique: universal PBM
Form: double-stranded DNA, one strand shown
Matrix: in vitro
Concentration: 600 nM
Setting: 8-mer, flanks averaged, mean of replicates
Direction: higher = stronger binding
Quantity: E-score
CTTAGCTC: -0.236
CCCGGGGC: -0.424
CAGACAAC: -0.0477
CAACTCTG: -0.0963
GATGATCC: -0.0754
ACCCCGCC: -0.155
GTCTGGTA: -0.0675
AATCCCTG: -0.16
CATCTTCA: 0.0418
AGGCAAGG: -0.199
CAGCAACC: -0.154
ATCGGTGA: 0.0395
GTTATTCA: 0.329
GTATAGTA: 0.221
TCTGTGCA: 0.0862
CCTCGGCA: -0.202
CGACCCAA: -0.0539

Set 5
Target: PABPC1L2, full length, GST fusion (mouse, UniProt A0ABA7IW68)
Technique: RNAcompete
Form: RNA
Matrix: in vitro
Concentration: 20 nM
Setting: 7-mer, probes averaged, single round
Baseline: mean of 7-mers
Direction: higher = stronger binding
Quantity: 7-mer Z-score
Construct (chain): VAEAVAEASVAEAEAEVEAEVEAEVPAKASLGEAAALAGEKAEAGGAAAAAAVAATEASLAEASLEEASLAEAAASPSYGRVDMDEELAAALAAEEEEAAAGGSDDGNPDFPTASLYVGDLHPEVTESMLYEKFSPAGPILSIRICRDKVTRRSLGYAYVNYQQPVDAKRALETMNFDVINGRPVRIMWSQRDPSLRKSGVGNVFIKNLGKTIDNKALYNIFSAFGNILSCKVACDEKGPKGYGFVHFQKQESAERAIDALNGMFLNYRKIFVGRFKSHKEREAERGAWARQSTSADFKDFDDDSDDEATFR
AGUAAGA: 0.017
AUCCGAA: -0.00833
CAUAAAA: 5.37
GAUUCCC: -0.389
GCACUUC: -0.242
CAAAUAU: 0.664
GAGAGGA: 0.354
AUAACGU: -0.115
UAUAAUU: -0.144
CGAUCAC: -0.126
UGUGAGG: -0.166
CAACGAC: 0.037
UACGUGG: 0.00979
CAAGGAU: -0.0047
UCUAAUC: -0.248
AUUUCAU: -0.202
CAGAGAA: 0.334
CUUGCGA: -0.219
GAAUGAU: -0.13
UGAUAGU: -0.15
CAGCGCU: -0.249
GCCGACU: -0.146
CCCCAGG: -0.394
GAGGCAA: 0.476
UGGCUGU: -0.179

Set 6
Target: Prothrombin, mature alpha-thrombin (F2, Homo sapiens, UniProt P00734)
Technique: aptamer microarray, sandwich
Form: DNA with 2'F-ANA
Matrix: in vitro
Concentration: 200 nM
Setting: whole 15-mer aptamer, many near background
With: Cy3 exosite-II aptamer, 400 nM
Direction: higher = stronger binding
Quantity: mean fluorescence intensity
Oligonucleotide: GGTTGGTGTGGTTGG
2'F-ANA at 1 4 6 7 9 12 13: 221 a.u.
2'F-ANA at 1 2 4 8 12: 406 a.u.
2'F-ANA at 2 4 5 7 8 10 12 14 15: 48.6 a.u.
2'F-ANA at 3 4 5 7 10 12: 151 a.u.
2'F-ANA at 2 4 5 6 8 12: 218 a.u.
2'F-ANA at 1 3 5 7 8 9 10 11: 45 a.u.
2'F-ANA at 3 6 8 9 12 13 15: 908 a.u.
2'F-ANA at 1 2 3 9 11 14: 63.6 a.u.
2'F-ANA at 1 3 4 8 9 11 12 13: 235 a.u.
2'F-ANA at 3 5 6 7 11 12 13 14: 56.1 a.u.
2'F-ANA at 1 3 4 5 6 8 14 15: 49.5 a.u.
2'F-ANA at 2 3 4 6 8 10 12 13 14: 148 a.u.
2'F-ANA at 3 4 11 12 15: 909 a.u.
2'F-ANA at 4 7 9 11 12 14: 106 a.u.
2'F-ANA at 2 10 12 13 14: 137 a.u.
2'F-ANA at 5 8 10 12 13 14: 44.7 a.u.
2'F-ANA at 1 2 10 12 14: 107 a.u.
2'F-ANA at 3 4 6 8 10 13: 207 a.u.
2'F-ANA at 2 3 4 5 7 8 10 11 12 13 15: 84.3 a.u.
2'F-ANA at 3 4 5 6 7 10 14 15: 48.4 a.u.
2'F-ANA at 1 3 4 5 7 11 12 14 15: 66.2 a.u.
2'F-ANA at 1 2 4 5 6 7 8 9 10 12 13: 50.8 a.u.
2'F-ANA at 4 5 6 7 14 15: 98.5 a.u.

A few entries again (set 5):
CCCCAGG: -0.394
CAGCGCU: -0.249
UGGCUGU: -0.179
CUUGCGA: -0.219
CAUAAAA: 5.37
UGAUAGU: -0.15
